# Measurements collected from several papers.
# Each numbered part is a random draw from the data of one study; scales do not carry over between parts.

# Set 1
# Target: Interferon regulatory factor 7, full length, phosphomimetic (IRF7, Homo sapiens, UniProt Q92985, residues 1-503, S471D/S472D/S475D/S476D/S477D/S483D/S484D/S487D)
# Method: protein-binding microarray
# Form: double-stranded DNA, one strand shown
# Medium: in vitro
# Tested at: 2200 nM top
# Setting: 60-bp whole probe
# Together with: salmon DNA 0.4 mg/ml
# Baseline: random background probes
# Reading: higher = stronger binding
# All sequences stand within: GCCTAGCAC … GTCTTGATTCGCTTGACGCTGCTG
# Target sequence (chain): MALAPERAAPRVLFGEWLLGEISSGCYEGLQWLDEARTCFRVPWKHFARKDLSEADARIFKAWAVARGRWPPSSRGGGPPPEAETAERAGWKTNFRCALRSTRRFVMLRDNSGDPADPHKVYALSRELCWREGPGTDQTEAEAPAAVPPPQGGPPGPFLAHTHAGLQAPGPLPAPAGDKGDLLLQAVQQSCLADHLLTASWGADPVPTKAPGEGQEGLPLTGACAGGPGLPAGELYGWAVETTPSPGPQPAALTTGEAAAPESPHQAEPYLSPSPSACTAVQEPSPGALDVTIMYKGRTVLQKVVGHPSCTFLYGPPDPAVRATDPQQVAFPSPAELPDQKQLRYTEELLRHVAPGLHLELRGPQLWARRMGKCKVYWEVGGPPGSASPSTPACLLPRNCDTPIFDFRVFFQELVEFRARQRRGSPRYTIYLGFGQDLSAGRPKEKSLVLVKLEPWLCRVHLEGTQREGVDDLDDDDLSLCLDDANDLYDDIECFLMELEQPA
Strand,fitted relative affinity
GACGGATTCGACACTGGGGACGTGCTA,0.156 z-score
TTAGATCTCCGTTTCGATTAGTGCTAG,3.24 z-score
GACGATATCAGTCCCGAGACGTGCTAG,0.514 z-score
TTAGGTTTCGGTTATCGGTTAGTGCTA,7.75 z-score
TTAGATTTGGGGACTGGATTAGTGCTA,0.167 z-score
GCCAAACACCCACATTCACCGTGCTAG,1.13 z-score
GTAGATTTCGGGTTTCGATTAGTGCTA,6.67 z-score
GACGGTCTCGGTCTCGCGACGTGCTAG,0.135 z-score
GACGGTCTTCTACTGCTGACGTGCTAG,0.435 z-score
TCATATGTAATCATTCACACTGTGCTA,0.785 z-score
CACGGTTTCCTTATCCTGACGTGCTAG,3.21 z-score
TCAGAAATTTCTTTCTAACTGTGCTAG,0.349 z-score
TCACTTTTAATTTTTAAACTGTGCTAG,0.798 z-score
TAGAAACTCGTGTTTTTCTCCGTGCTA,0.755 z-score
TTAGAACTGGGGGATCGATTAGTGCTA,0.493 z-score
TCATTTCTATCTCTGTTACTGTGCTAG,2.74 z-score
TTAGGTCTCGGACCGGGTTAGTGCTAG,-0.467 z-score
GTCATTTTCTCTTATTCTAAGTGCTAG,2.79 z-score
TTAGGACTGCTTATCCTGTAGTGCTAG,0.272 z-score
TCATTTACCCATCTCCAACTGTGCTAG,2.48 z-score
GACGGTCTCGGTTGCGGGACGTGCTAG,0.0979 z-score
GACGTTATCAGTCTCGAGACGTGCTAG,0.775 z-score
GACGGGATCCTTATCCTGACGTGCTAG,0.462 z-score
GACGGTTTCGCGTATCGGGACGTGCTA,3.03 z-score

# Set 2
# Target: PABPC1L2, full length, GST fusion (mouse, UniProt A0ABA7IW68)
# Method: RNAcompete
# Form: RNA
# Medium: in vitro
# Tested at: 20 nM
# Setting: 7-mer, probes averaged, single round
# Baseline: mean of 7-mers
# Reading: higher = stronger binding
# Target sequence (chain): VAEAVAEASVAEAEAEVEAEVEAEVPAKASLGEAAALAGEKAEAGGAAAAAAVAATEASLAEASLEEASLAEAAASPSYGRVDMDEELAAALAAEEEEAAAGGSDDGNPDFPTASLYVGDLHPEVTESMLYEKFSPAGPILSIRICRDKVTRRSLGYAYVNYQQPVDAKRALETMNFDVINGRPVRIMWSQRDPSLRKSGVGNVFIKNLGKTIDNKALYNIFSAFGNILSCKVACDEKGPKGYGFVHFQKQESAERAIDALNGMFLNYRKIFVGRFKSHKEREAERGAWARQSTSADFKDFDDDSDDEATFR
Strand,7-mer Z-score
UGCAUGU,-0.142
GGGUAAU,0.151
CAGUGGU,-0.231
GAAGUGA,-0.0192
GUUCUCC,-0.373
AGGUCCA,-0.146
UCAGCAC,-0.124
CGAAGCA,-0.079
GACUACC,-0.151
CCCCCCG,-0.465
UGUGAUG,-0.286
AUACGAA,0.195
CUACUUG,-0.248
UUCCGAU,-0.266
UUAGCUG,-0.184
GAUCAAC,-0.186
AUAUAGG,-0.05
CACGAAU,-0.155
GCAUAUU,-0.0917
AUGGACU,-0.0192
UCUCGAA,-0.0355
GCCGUGA,-0.195

# Set 3
# Target: Histone acetyltransferase KAT6A, both winged helices, GST fusion (KAT6A, Homo sapiens, UniProt Q92794, residues 1-181)
# Method: protein binding microarray
# Form: double-stranded DNA, one strand shown
# Medium: in vitro
# Tested at: not given
# Setting: 8-mer, flanks averaged, mean of 2 arrays, mostly near background
# Baseline: not given
# Reading: higher = stronger binding
# Target sequence (chain): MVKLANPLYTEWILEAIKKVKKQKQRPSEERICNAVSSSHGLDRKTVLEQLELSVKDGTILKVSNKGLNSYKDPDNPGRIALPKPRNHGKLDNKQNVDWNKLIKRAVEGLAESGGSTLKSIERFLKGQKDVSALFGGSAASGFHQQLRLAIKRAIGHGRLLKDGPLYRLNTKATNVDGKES
Strand,E-score
CGGGACAC,0.18
AATTTGGT,-0.227
AGATTCAC,-0.191
ACTAAAAC,0.0254
TAACCTTA,-0.12
CAATTTAC,-0.0351
CGTGGCTA,-0.131
AAATTATT,-0.0329
CGCGGTAA,0.358
AGGTCTCA,-0.0443
ACGTCAAA,0.0256
CTAATGTA,-0.0342
GCAACGAC,0.0584
ATGCCGCC,0.295
CCACTCCG,0.245
AGCCATTC,-0.197
CACTGCGC,0.285
CCTGCAGG,-0.143
CTATAGAA,-0.0466
ACAAGAAC,0.0361
CAACACGG,0.136

# Set 4
# Target: Centromere-binding protein 1, full length, His-tagged (CBF1, Saccharomyces cerevisiae, UniProt P17106, residues 1-351)
# Sequence of UniProt P17106 (whole entry, looked up): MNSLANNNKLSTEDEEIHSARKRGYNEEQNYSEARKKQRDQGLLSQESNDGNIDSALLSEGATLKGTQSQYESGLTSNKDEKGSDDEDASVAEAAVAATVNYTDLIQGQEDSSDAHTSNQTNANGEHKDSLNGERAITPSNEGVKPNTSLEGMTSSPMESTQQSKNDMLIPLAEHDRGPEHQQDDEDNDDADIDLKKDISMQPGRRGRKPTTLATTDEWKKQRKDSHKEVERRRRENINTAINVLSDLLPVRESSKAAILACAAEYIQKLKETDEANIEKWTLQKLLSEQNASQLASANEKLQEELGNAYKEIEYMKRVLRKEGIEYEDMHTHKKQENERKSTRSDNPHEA
# Method: competition protein-binding microarray
# Form: double-stranded DNA, one strand shown
# Medium: in vitro
# Tested at: 2 µM
# Setting: whole 60-bp probe, lowest competitor level
# Together with: Pho4 competitor, 0.05 µM
# Reading: higher = stronger binding
# All sequences stand within: … GTCTTGATTCGCTTGACGCTGCTG
Strand,fluorescence intensity [a.u.]
CTTCTGTAAATTTGACATGTGGGTGGACGCGCCCCG,87.2
AAGAGACAAAAGGAACACGTGAAATAAGAAAGAAAA,1560
CTAACGAAGGTTTGCCTTGTGGGTGACAAGCCAAGT,79
TGATTGTCAGTCGTTCGCGTGGGTACAACTTTGGTC,76.6
ACATTATGCATAGCTTACCTGATCCAAAAGTATGTA,76.5
AAGGGCCCTTGCCTACACGTGAATATGTCTATTTTA,686
TCTCTTCTTCATCACCACGATGTATCTTTTGTTTTG,79.1
AAATTAGTAACGCATAACGTGTTTTCTGCGACAAGC,119
ACATCAAGACAGCGTCACAGTCAGCTAAACAGAAAA,56.6
AGTAAAAGAGAAAAACACGTGTGGAGAACTTTTCAT,864
ACTTGGTTAAAGACTCACGTGTAGTTTACGGTGGGG,1900
CTTTCCCGATCTTGTCACTCGACTTTAGCACATTTG,81.5
CATACCCAACCTTGTCTGGTGGGTGAAGATATTTGT,72.2

# Set 5
# Target: Hepatocyte nuclear factor 3-alpha (Foxa1, Mus musculus, UniProt P35582, residues 1-468, full length assumed)
# Method: EMSA with sequencing
# Form: double-stranded DNA, one strand shown
# Medium: in vitro
# Tested at: 10 and 20 nM
# Setting: whole designed probe, mean of two concentrations, ends assumed
# Baseline: negative control set to 0
# Reading: higher = stronger binding
# All sequences stand within: GTGAGCGGTGCCCATTGATGGGGAAC … TTTCACTGGGATCGTGGGGAC
# Residues (chain): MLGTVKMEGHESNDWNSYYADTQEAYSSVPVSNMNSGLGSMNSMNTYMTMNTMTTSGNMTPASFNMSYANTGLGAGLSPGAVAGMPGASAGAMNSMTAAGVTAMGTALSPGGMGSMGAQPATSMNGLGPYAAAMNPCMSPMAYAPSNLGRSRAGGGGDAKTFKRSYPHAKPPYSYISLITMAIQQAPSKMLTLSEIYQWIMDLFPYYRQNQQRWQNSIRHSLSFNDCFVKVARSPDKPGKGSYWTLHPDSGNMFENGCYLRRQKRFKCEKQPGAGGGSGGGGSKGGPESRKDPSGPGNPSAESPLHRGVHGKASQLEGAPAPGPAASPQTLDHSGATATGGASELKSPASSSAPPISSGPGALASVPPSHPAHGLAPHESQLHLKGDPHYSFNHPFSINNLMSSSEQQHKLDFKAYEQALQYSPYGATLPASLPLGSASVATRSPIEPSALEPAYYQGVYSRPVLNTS
Strand,normalised bound fraction
CAGCTTGGGGCAGACAGTTGTTAGGAGATAAAACTCTTAGCTGCTGGAGTTCTGGGCTTTATTTCTTCTTCAACAAAGCTCTGACTCAGTTAGGTAAACACAGGCACTAGCAAGCCTGATCATTTCCAGAGAGTTCCCCAGGGACAGACACAAAGGAATACAGAAGATAATAGATTAATTAAACATGCTGCCC,0.336 ratio
TTCATCAGTCTATGCAAGTAAATGTTAACATTCCATGTCCTGTGACAGCTTGGGTGAGAGCTGTAATTTATTGGGTTGGAGGGGGGTTGTGGTAAATTGCATTGTGTAAGCTAAGCCTCATTCTTAACACAGAAAAAAGAATGCTACACAACACCAAAAAGGCTAAAATTTGTTTTGCATTATAAATAACAGA,0.0875 ratio
ATCTTCCCCCTCTTCCTTGCCCCACCAGCTCACCTACGGGGGTTATTTGCACAAAGGAAAATAAATAAAGCCGGCATTCGTTAACGCAGTTCTGGCGCAAACTGCTGTTTGCTCTGCATCTAACATGGTCCTTACGCGAGGCGTGGCTCCGGGAGAGCAAAGCACCGTGTCAGGCGCATGATCCGGGCTCGCC,0.396 ratio
ATCTTCCCCCTCTTCCTTGCCCCACCAGCTCACCTTCCCGGGTATCTGCAAATAAGTATTTATTTTCAAGCCGGCATTCGTTAACCCTCTTCACGCGCATACTGCTGTTTGCTCTGGATGAATCATGGTCCTTTGGCGACGCCAGGCTCCGGGAGAGCAAAGCACCGTGTCAGGGCCATGATCCGGGGTGGCC,0.216 ratio
TCCAAGCGCTCCGAATGTCCACTTGCAGATGCTACAAAAAGAGTGTTTCAAAACTGCTCTATGAAAAGGAATGTGCAAATCTGTGAGATAAATGCAATCTTCACAAAGAAGTCTTTGAGAATGCTTCTGTCTAGTTTGTATGTTAAGATATTTCCCATTTCACCATACGTCTTAACGCACACCAAATGTCCAC,-0.0535 ratio

# Set 6
# Target: RING finger protein unkempt homolog, zinc fingers 1-6, GST-SBP tag (UNK, Homo sapiens, UniProt Q9C0B0, residues 30-357)
# Sequence of UniProt Q9C0B0 (30-357, looked up): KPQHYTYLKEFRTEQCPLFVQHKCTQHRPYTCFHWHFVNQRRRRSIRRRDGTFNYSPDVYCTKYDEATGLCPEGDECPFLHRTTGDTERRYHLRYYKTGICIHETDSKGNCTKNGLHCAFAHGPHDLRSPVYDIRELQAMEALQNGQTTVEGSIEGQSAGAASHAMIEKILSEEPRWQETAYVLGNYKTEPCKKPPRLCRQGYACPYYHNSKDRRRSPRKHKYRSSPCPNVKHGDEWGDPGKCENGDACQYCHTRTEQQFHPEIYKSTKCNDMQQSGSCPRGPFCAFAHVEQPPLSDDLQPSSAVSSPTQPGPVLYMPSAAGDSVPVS
# Method: RNA Bind-n-Seq
# Form: RNA
# Medium: in vitro
# Tested at: not given
# Setting: RNA with constant flanks, human-mouse chimeric sites, ends assumed
# Baseline: input RNA pool
# Reading: higher = stronger binding
# All sequences stand within: GGGAGUUCUACAGUCCGACGAUC … CAACAGAGGAUUGAGCAUCA
Strand,bound/input enrichment
AAAUCGUGUGUGUCAAAUAUUGAAAGUGCUUUAUCUACACUCCAGUAUGUAAGCAGUAUAGUAGUUUCUUUAGAGAAUAGGUCAGCCAUUGUAAAGUACAAUGCAAGCUCAGUCACUCCA,36.6 ratio
UCAGUCUUUUUGUACAGCUUUGUAAAUUCUUAACAUUUUUAUAUUGCCAUGUUUAUUUUUUUUAGAUAAUUUGGUUCAUUAAGUACAUAGCUAAGGUAAUGAACAUCUUUUUCAGUAAUU,6.82 ratio
GACAGUGAAGAAGAAAUUAGAGAAGCAUUCCGUGUGUUUGAUAAGGAUGGCAAUGGCUAUAUUAGUGCUGCAGAACUUCGCCAUGUGAUGACAAACCUUGGCGAGAAGUUAACAGAUGAA,0.676 ratio
UAAGUUAUUUUGUACAGCUUUGUAAAUUCUUAACAUUUUUAUAUUGCCAUGUUUAUUUUUUUUAGAUAAUUUGGUUCAUUAAGUACAUAGCUAAGGUACAUCUUUCAUUUUUCAGUAAUU,3.02 ratio
CCAAUUGUGGAGCAGUACUUGAAGACAAAAAAGAACUCUAAUAAUUUAAUCAUCAAGUACAUUAGCUGCCGCCUGCUGACACUCAUCAUUAUACUGUUAGCGUGUAUCUACCUGGGCUAU,0.462 ratio
AUCAAAUACUUUGGGGACAUCAUUAGUGUGGGACAGAGAUUGUUGCAAGGAGCUCGGAUCUUAGGGAUUCCAGUUAUUGUAACAGAACAAUACCCCAAAGGACUUGGCAGCACCGUUCAA,0.189 ratio

# Repeated from above (set 2):
Strand,7-mer Z-score
UUCCGAU,-0.266
UUAGCUG,-0.184
GAUCAAC,-0.186
AUAUAGG,-0.05
CACGAAU,-0.155
